# Measured values gathered from unrelated publications.
# Protocols differ between the studies behind these lines. Several values in a cell are separate wells, animals, samples, runs or records. ± gives the spread as reported.
SMILES,test,system,conditions,how to read,quantity,value
Cc1cc(NC(=O)[C@H](O)c2cc(F)cc(F)c2)ccc1-c1cnc(N)c(C(=O)NC(C)C)c1,,"athymic nude Foxn1nu mouse, female, plasma","oral, 30 mg/kg",,dose-normalised Cmax,122 ng·kg/mL/mg
[123I]c1ccc2nc(-c3ccc(-n4ccnn4)nc3)cn2c1,,"male Wistar rat, liver","intravenous, 4 MBq, 1 h",,tracer uptake,0.618 %ID/g
CC(C)[C@H](NC(=O)[C@H](Cc1c[nH]c2ccccc12)NC(=O)[C@H](CCCNC(=N)N)NC(=O)[C@H](CCCNC(=N)N)NC(=O)[C@@H](NC(=O)[C@@H](NC(=O)[C@H](CCCNC(=N)N)NC(=O)[C@@H](NC(=O)[C@@H](NC(=O)[C@H](CCCNC(=N)N)NC(=O)[C@H](CCCNC(=N)N)NC(=O)[C@@H](NC(=O)[C@H](Cc1c[nH]c2ccccc12)NC(=O)[C@H](CCCNC(=N)N)NC(=O)[C@H](CCCNC(=N)N)NC(=O)[C@@H](NC(=O)[C@H](CCCNC(=N)N)NC(=O)[C@H](CCCNC(=N)N)NC(=O)[C@@H](NC(=O)[C@H](Cc1c[nH]c2ccccc12)NC(=O)[C@H](CCCNC(=N)N)NC(=O)[C@@H](N)CCCNC(=N)N)C(C)C)C(C)C)C(C)C)C(C)C)C(C)C)C(C)C)C(C)C)C(=O)N[C@@H](CCCNC(=N)N)C(=O)N[C@@H](CCCNC(=N)N)C(=O)O,,"CD1 mouse, urine","intravenous, 15 mg/kg, 0 to 6 h, [14C]-labelled compound",,urine volume,64 µL/day/g body weight
C=CC(=O)Nc1cc(Nc2nccc(-c3c[nH]c4ccccc34)n2)c(OC)cc1N(C)CCN(C)C,storage stability,human dried blood spot,"30 d, -80 °C, LLOQ level",,recovery,90.2%
O[C@@H]1[C@@H](O)[C@H](n2cc(COc3ccc(-c4nncnn4)cc3)nn2)O[C@H](C[18F])[C@H]1O,,"BALB/c nude mouse, LS174T xenograft","intravenous, 1 h, together with: CC49-TCO 72 h before",,tumour to muscle ratio,3.6
CN(CCCO)Cc1ccc(-c2noc(-c3ccc(OCC[18F])c(C(F)(F)F)c3)n2)cc1F,,"Sprague-Dawley rats, male, lung",5 min post-injection,,tissue uptake,9.32 ± 0.94 %ID/g
CCNCC#CCNc1ccnc2cc(Cl)ccc12,item: compound as metabolite,monkey hepatocytes,"10 µM DAQ, 30 min",relative to: parent at time zero,relative UV abundance,40.4%
COCC1CN(C2CCN(c3cc(OC)c(Nc4ncc(Br)c(Nc5ccc6c(c5P(C)(C)=O)OCCO6)n4)cc3C)CC2)C1,first-in-human trial,human,"oral, 60 mg once daily",treatment-related leading to dose suspension,adverse events,0%
CC[C@H](C)/C=C/C=C/C=C/C(O)=C/C(=O)C(F)(F)F,UPLC-MS,PBS with DMSO,"100 µM, 1 h, pH 7.4, room temperature, 1% DMSO",,hydrate fraction,45%
C=Cc1c(C)c2cc3nc(c(CC(=O)OCCOCCOCCOC)c4[nH]c(cc5nc(cc1[nH]2)C(C)=C5CC)c(C)c4C(=O)O)[C@@H](CCC(=O)OCCOCCOCCOC)[C@@H]3C,LC-MS,methanol-water 9:1,"5 min, pH 8.0",,compound loss,3%
CC[C@H](C)[C@@H]1NC(=O)[C@H](Cc2ccc(O)cc2)NC(=O)CCCSC[C@@H](C(=O)N(CC(=O)N[C@@H](CC(C)C)C(=O)NCC(N)=O)Cc2ccc(F)cc2)NC(=O)[C@H](CC(N)=O)NC(=O)[C@H](CCC(N)=O)NC1=O,,human,"intranasal, 400 µg repeated doses",,serious adverse events,0%
O=C(CCc1cn([C@@H]2O[C@H](C[18F])[C@@H](O)[C@H](O)[C@H]2O)nn1)Nc1ccc(-c2nnc(-c3ccccn3)nn2)nc1,PET imaging,"BALB/c nude mouse, LS174T xenograft, tumour, heart as blood","intravenous, 1 h, together with: CC49-TCO 72 h before",relative to: tumour over heart,tumour to blood ratio,0.78
COc1ccnc(C(=O)N[C@H]2COC(=O)[C@H](Cc3ccccc3)[C@@H](OC(=O)C(C)C)[C@H](C)OC2=O)c1O,aerobic dark soil incubation,clay soil,"20 °C, modelling endpoint",,DT50,227 days
COc1ccccc1NC(=O)OC1C(C)C(OC)C=COC2(C)Oc3c(C)c(O)c4c(c3C2=O)C2=NC3(CCN(CC(C)C)CC3)NC2=C(NC(=O)C(C)=CC=CC(C)C(O)C(C)C(O)C1C)C4=O (stereo not drawn),,"CD-1 mouse, female, plasma","oral, 10 mg/kg",,oral bioavailability,22%
CC(C)OCCOCc1ccc(OCC(O)CN(N=O)C(C)C)cc1 (stereo not drawn),"duplex sequencing, item: mutation frequency","NMRI mouse, liver","oral, 98.0 mg/kg/day, 4 weeks",relative to: vehicle,fold change,1.45
CC(C)(c1cc(Br)c(O)c(Br)c1)c1cc(Br)c(O)c(Br)c1,,cow whole milk,2000 nM,relative to: milk fat over skim milk,milk fat partition ratio,21.5
CCCC[C@H](NC(=O)CNC(=O)CNC(=O)[C@H](CCCCNC(=O)[C@H](CCN)NC(=O)C(C)c1ccc(CC(C)C)cc1)NC(=O)CN1CCN(CC(=O)O)CCN(CC(=O)O)CCN(CC(=O)O)CC1)C(=O)N[C@H]1CC(=O)NCCCC[C@@H](C(N)=O)NC(=O)[C@H](Cc2c[nH]c3ccccc23)NC(=O)[C@H](CCCNC(=N)N)NC(=O)[C@@H](Cc2ccccc2)NC(=O)[C@H](Cc2c[nH]cn2)NC1=O (stereo partly drawn) [lutetium-177 labelled],,"C57 mice, tumour",2 h,relative to: kidney,tumour-to-tissue ratio,0.35
CC(=O)N[C@@H](Cc1ccccc1)C(=O)N[C@@H](CC(C)C)C(=O)NCC(=O)N[C@H](C(=O)N[C@@H](CC(C)C)C(=O)N[C@@H](C)C(=O)N[C@@H](CC(C)C)C(=O)N[C@@H](CC(C)C)C(=O)NCC(=O)N[C@@H](Cc1ccc(O)cc1)C(=O)N[C@@H](CC(C)C)C(=O)N[C@@H](C)C(=O)N[C@H](C(=O)N[C@@H](CCCNC(=N)N)C(=O)N1CCC[C@H]1C(=O)N[C@@H](Cc1ccccc1)C(=O)N[C@@H](CC(C)C)C(=O)N1CCC[C@H]1C(=O)N[C@@H](CCCCN)C(=O)N[C@@H](CCCCN)C(=O)N[C@@H](CCCCN)C(=O)N[C@@H](CCC(N)=O)C(=O)N[C@@H](CCC(N)=O)C(=O)N[C@@H](CCCCN)C(N)=O)C(C)C)C(C)C,LC-MS,DOPC/DOPG vesicles with trypsin,"10 µM, 12 h, pH 7.2",,cleaved to intact ratio,0.3 ± 0.08
C=C(NC(=O)c1csc(-c2nc3c(cc2O)-c2nc(cs2)C(=O)NC(C(C)O)C(=O)NC(=C(C)OC)c2nc(cs2)C(=O)NC2c4nc(cs4)C(=O)NC(COC(=O)c4c5c6c(cccc6n4O)COC(=O)C(OC4CC(C)(O)C(N(C)C)C(C)O4)C2OC5)c2nc-3cs2)n1)C(N)=O (stereo not drawn),,"cynomolgus monkey, female, plasma","intravenous infusion, 1.5 mg/kg twice daily, 0 to 30 h",,Tmax,2.08 h
C=CC(=O)Nc1cc(Nc2nccc(-c3cn(C4CC4)c4ccccc34)n2)c(OC)cc1N(C)CCNC,long-term storage stability,rat plasma,"1 ng/mL, 3 weeks, -80 °C",relative to: nominal concentration,relative error,0.6%
CCCCN1C(=O)c2cccc3c(NCCCCCCN4CCOCC4)ccc(c23)C1=O,,ethyl acetate,,,fluorescence lifetime,9.7 ns
Cc1cc(-c2ccc(C(=O)[C@@H]3CCCC[C@H]3C(=O)Nc3cnn4c3C(=O)NCC4)cc2)[nH]n1,,"human, urine","oral, 200 mg, 12-24 h",relative to: dose,radioactivity recovery per interval,0.49% and 0.54% and 0.67% and 1.35% and 0.45% and 0.23%
O=C(O)CCCOc1ccc([18F])cc1-c1cc(-c2ccccc2C(F)(F)F)n(-c2ccccc2)n1,OLINDA/EXM extrapolation from mouse,"human adult, heart wall, highest organ",370 MBq,,absorbed radiation dose,25.4 mGy
C/C(N)=N/C(=N\S(=O)(=O)c1ccc(C(F)(F)F)cc1)N1C[C@H](c2ccccc2)C(c2ccc(Cl)cc2)=N1,,"cynomolgus monkey, female, plasma","oral, 18 mg/kg",,Tmax,4 h
COc1cccc(OC)c1-c1cc(C(=O)NC2(C(=O)O)C3CC4CC(C3)CC2C4)nn1-c1ccc(C(=O)N(C)CCOCCN(C)C(=O)[C@H](CCCCNC(=O)[C@H](CC(C)C)NC(=O)C2OC2C(=O)O)NC(=O)CN2CCN(CC(=O)[O-])CCN(CC(=O)[O-])CCN(CC(=O)[O-])CC2)cc1C(C)C.[177Lu+3] (mixture of isomers),,"mouse, HT-29 xenograft","24 h post injection, biodistribution",relative to: tumour over heart uptake,tumour-to-heart ratio,7.53
CC(C)(F)CC(NC(c1ccc(-c2ccc(S(C)(=O)=O)cc2)cc1)C(F)(F)F)C(=O)NCC#N (stereo not drawn),,PBS,"100 µM, 23 h, pH 8, 37 °C, together with: cysteine 10 mM",,cysteine adduct formation,98%
CC(C)(O)c1ncc([S@](N)(=O)=NC(=O)Nc2c3c(cc4c2CCC4)CCC3)s1,"item: musculoskeletal, connective tissue",healthy human,"oral, 30 mg, 14 days, CS formulation, once daily",,subjects with TEAEs,33%
O=C1C2CC3CC1CC(C(=O)N1CCN(c4ccc([N+](=O)[O-])c5ncccc45)CC1)(C3)C2,,"ICR mice male, plasma","intravenous, 1 mg/kg",,AUC(0-t),140 ng·h/mL
O=C([O-])CN1CCN(CC(=O)[O-])CCN(CC(CCCc2ccccc2[N+](=O)[O-])N(CC(=O)[O-])CC(=O)[O-])CC1.[90Y+3] (stereo not drawn),TLC,human serum,"264 h, pH 7, 37 °C",,intact radiolabelled complex,99.6 ± 0.5%
CC(C)C[C@H](NC(=O)[C@@H](CCCCNC(=O)[C@@H](Cc1ccccc1)NC(=O)CCCCCCCNC(=O)CN1CCN(CC(=O)O)CCN(CC(=O)O)CCN(CC(=O)O)CC1)NC(=O)[C@H](Cc1ccc(O)cc1)NC(=O)[C@H](CO)NC(=O)[C@H](Cc1c[nH]c2ccccc12)NC(=O)[C@H](Cc1c[nH]cn1)NC(=O)[C@@H]1CCC(=O)N1)C(=O)N[C@@H](CCCNC(=N)N)C(=O)N1CCC[C@H]1C(=O)NCC(N)=O [indium-111 labelled],,"male athymic nude mice, DU-145 prostate cancer xenograft, tumour","intravenous, 0.037 MBq, 0.5 h",relative to: tumour over blood,tumour-to-tissue ratio,0.77
CCn1c(=O)c(-c2cc(NC(=O)Nc3ccccc3)c(F)cc2Br)cc2cnc(N)cc21,,human plasma,"4000 ng/mL, 24 h, 24 °C, high QC",,short-term stability accuracy,9.07%
CN1CCC[C@]1(C)/C=C/S(=O)(=O)NC(=O)Nc1c2c(cc3c1CCC3)CCC2,"item: nasopharyngitis, not related",human,"oral, 12.5 mg twice daily, 14 days, multiple ascending dose",,subjects with adverse event,0%
O=C(NS(=O)(=O)c1cccs1)c1cc2ccccc2n1Cc1ccc(Br)c2ccccc12,,"Sprague-Dawley rat, male, ankle joint tissue","oral, 2 mg/kg, 24 h",,tissue concentration,660 ng/g
CC(=O)N[C@H](CC(=O)O)C(=O)N[C@H](Cc1c[nH]c2ccccc12)C(=O)N[C@H](Cc1ccccc1)C(=O)N[C@H](CCCCN)C(=O)N[C@H](C)C(=O)N[C@H](Cc1ccccc1)C(=O)N[C@H](Cc1ccc(O)cc1)C(=O)N[C@H](CC(=O)O)C(=O)N[C@H](CCCCN)C(=O)N[C@@H](C(=O)N[C@H](C)C(=O)N[C@H](CCC(=O)O)C(=O)N[C@H](CCCCN)C(=O)N[C@H](Cc1ccccc1)C(=O)N[C@H](CCCCN)C(=O)N[C@H](CCC(=O)O)C(=O)N[C@H](C)C(=O)N[C@H](Cc1ccccc1)C(N)=O)C(C)C,,"human, plasma","oral, dose not given, 2 h post-dose, day 13",,plasma concentration,68 ng/mL
Cc1nn(-c2nc3c(F)cc(F)cc3s2)c(O)c1C(c1ccc(C(F)(F)F)cc1)c1c(C)nn(-c2nc3c(F)cc(F)cc3s2)c1O,,"male ICR mouse, plasma","intravenous, 5 mg/kg",,dose-normalised AUC(0-t),7210 kg·ng·h/mL/mg and 9350 kg·ng·h/mL/mg and 17600 kg·ng·h/mL/mg
O=C(OC(C(F)(F)F)C(F)(F)F)N1CCC(CNS(=O)(=O)c2ccc(Cl)cc2)CC1,,"CB17 SCID mice, male, plasma","oral, 30 mg/kg",,Tlast,24 h
O=C(Nc1cnccc1-c1ccc([18F])cc1)c1ccnc(NC(=O)C2CC2)c1,,"FVB/NJ mouse, both sexes, brain","intravenous, 40 min, together with: tariquidar 15 mg/kg iv",,SUV,0.39
CN1CCC[C@]1(C)/C=C/S(=O)(=O)NC(=O)Nc1c2c(cc3c1CCC3O)CCC2 (stereo partly drawn),,"human, plasma","oral, 50 mg twice daily of parent drug, day 14, metabolite of dosed drug",,Tmax at second steady-state dose,3.5 h
C=CC(=O)Nc1cc(Nc2nccc(-c3cn(C)c4ccccc34)n2)c(OC)cc1N(C)CCNC,storage stability,human plasma,"270 ng/mL, 24 h, -80 °C, HQC level",,remaining amount,99.2%

# Some of these lines once more:
SMILES,test,system,conditions,how to read,quantity,value
CCCCN1C(=O)c2cccc3c(NCCCCCCN4CCOCC4)ccc(c23)C1=O,,ethyl acetate,,,fluorescence lifetime,9.7 ns
Cc1cc(-c2ccc(C(=O)[C@@H]3CCCC[C@H]3C(=O)Nc3cnn4c3C(=O)NCC4)cc2)[nH]n1,,"human, urine","oral, 200 mg, 12-24 h",relative to: dose,radioactivity recovery per interval,0.49% and 0.54% and 0.67% and 1.35% and 0.45% and 0.23%
O=C(O)CCCOc1ccc([18F])cc1-c1cc(-c2ccccc2C(F)(F)F)n(-c2ccccc2)n1,OLINDA/EXM extrapolation from mouse,"human adult, heart wall, highest organ",370 MBq,,absorbed radiation dose,25.4 mGy
C/C(N)=N/C(=N\S(=O)(=O)c1ccc(C(F)(F)F)cc1)N1C[C@H](c2ccccc2)C(c2ccc(Cl)cc2)=N1,,"cynomolgus monkey, female, plasma","oral, 18 mg/kg",,Tmax,4 h
COc1cccc(OC)c1-c1cc(C(=O)NC2(C(=O)O)C3CC4CC(C3)CC2C4)nn1-c1ccc(C(=O)N(C)CCOCCN(C)C(=O)[C@H](CCCCNC(=O)[C@H](CC(C)C)NC(=O)C2OC2C(=O)O)NC(=O)CN2CCN(CC(=O)[O-])CCN(CC(=O)[O-])CCN(CC(=O)[O-])CC2)cc1C(C)C.[177Lu+3] (mixture of isomers),,"mouse, HT-29 xenograft","24 h post injection, biodistribution",relative to: tumour over heart uptake,tumour-to-heart ratio,7.53
CC(C)(F)CC(NC(c1ccc(-c2ccc(S(C)(=O)=O)cc2)cc1)C(F)(F)F)C(=O)NCC#N (stereo not drawn),,PBS,"100 µM, 23 h, pH 8, 37 °C, together with: cysteine 10 mM",,cysteine adduct formation,98%
